Experimental data collected from several papers.
Each numbered part is a random draw from the data of one study; scales do not carry over between parts.

Sample 1 — technique: protein binding microarray; form: double-stranded DNA, one strand shown; sample: in vitro; tested at: not given; relative to: not given; direction: higher = stronger binding; quantity: E-score
Target: Histone acetyltransferase KAT6A, winged helix 1, GST fusion (KAT6A, Homo sapiens, UniProt Q92794, residues 1-85)
Setting: 8-mer, flanks averaged, mean of 2 arrays, mostly near background
Construct (chain): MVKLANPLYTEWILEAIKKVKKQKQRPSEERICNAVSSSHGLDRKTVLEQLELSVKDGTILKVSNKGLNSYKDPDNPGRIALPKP
Strand = GCCCTCAC; value = -0.0363
Strand = ACGGTGCA; value = -0.01
Strand = ACGCTAAA; value = 0.126
Strand = AATTTAAC; value = -0.148
Strand = AATCACGA; value = -0.109
Strand = ACCGCGCA; value = 0.411
Strand = CCGTTGAG; value = 0.136
Strand = CGGCGCCG; value = 0.473
Strand = AGTCATTA; value = -0.109
Strand = AGGTACTA; value = -0.173
Strand = TCACGTCA; value = -0.165
Strand = CTGCGAAA; value = -0.052
Strand = CAATGTGA; value = -0.067
Strand = ATACACAT; value = -0.106
Strand = GAGATACA; value = -0.0552
Strand = ACAACGTA; value = -0.215
Strand = TCCGAAGA; value = -0.0916
Strand = CGTAATCA; value = 0.049
Strand = CTAGCTAC; value = -0.0839
Strand = ACGTGTCA; value = -0.215
Strand = GAGTGCCA; value = -0.245
Strand = AATCAGCG; value = 0.158
Strand = ACTTCACC; value = 0.00579
Strand = CCAATTCG; value = -0.258

Sample 2 — technique: RNA Bind-n-Seq; form: RNA; sample: in vitro; tested at: not given; relative to: input RNA pool; direction: higher = stronger binding; quantity: bound/input enrichment
Target: RING finger protein unkempt homolog, zinc fingers 1-6, GST-SBP tag (UNK, Homo sapiens, UniProt Q9C0B0, residues 30-357)
Sequence of UniProt Q9C0B0 (30-357, looked up): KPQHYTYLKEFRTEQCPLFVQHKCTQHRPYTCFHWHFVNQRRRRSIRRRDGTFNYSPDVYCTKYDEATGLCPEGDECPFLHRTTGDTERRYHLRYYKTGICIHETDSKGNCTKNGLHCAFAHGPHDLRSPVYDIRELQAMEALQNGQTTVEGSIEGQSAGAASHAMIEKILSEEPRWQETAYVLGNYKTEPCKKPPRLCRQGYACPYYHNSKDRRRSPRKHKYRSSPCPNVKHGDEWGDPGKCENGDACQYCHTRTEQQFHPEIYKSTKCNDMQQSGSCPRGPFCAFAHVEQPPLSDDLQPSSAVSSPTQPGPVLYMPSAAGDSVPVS
Setting: RNA with constant flanks, human-mouse chimeric sites, ends assumed
All sequences stand within: GGGAGUUCUACAGUCCGACGAUC … CAACAGAGGAUUGAGCAUCA
Strand = CCUGCUCAGAUCACCAUGAAAGUAAUCCAAGGCCUAUAUAGUGGGGUCACCACAGUGGAACUGGACACCCUGGCUGCUGAAACAGCUGCGACCUUGACUACUAAGCACCCUGACUAUGCC; value = 0.133 ratio
Strand = GAUCAUGAACCACCAUCAGAAAUGAAGAUGAGAUUACCCAGACGAGCCAAAACAGCUGCGCUACAGAAAAGUAAACUUAACCUUGCACCAAUUUCUCAUGAAGAUACUAAGUUAGGAAGC; value = 0.47 ratio
Strand = GCGGCAGAAUCAUGGAGGACAUGAUGGAGCUCCCCAAAGCGCGCGUCAACGCCAGCAUGUUACCACAGUAUAUCGACCGGCCCGUGUGCUUCGUGGGGAGGCUGGAAAAGAUUCAUCCCA; value = 0.169 ratio
Strand = CAGGGCAUCAUCUCUCGUGCUGUUAGACACCUGUUCAAGAGUAUUGAAGAAAAAAAAACCUCAGCGAUUAAAAACGGGCUGCCCCCUCCUGAAUUCAAAGUGAAUGCCCAAUUCUUAGAG; value = 0.808 ratio
Strand = AAAGAGUGGAUAGAGUGUGCACACGGGAUCGGUGGGACCCGGGCGAAAAAGGAGUGCAAGAUAGAAUAUGAUGAUUUCGAAGAGUGCUUGCUUCGGUACAAAACGAUGAGGCGAAUGCAU; value = 1.42 ratio
Strand = GCUCCUCCCCGCUCUGCAGCCUGGGGACACUGGGCUGGGACCAGAAUCCAGCUUUCUUUUAAAACUCUAUAUUUUUUUGUAUCCCGUGACAUUUCAUUUUUUUUAAAAGAAAAAAACUUU; value = 0.466 ratio
Strand = CUGGCACUCUAUCAGAUAUAUUAAUUUUUUAAUGUAGAUAAAAUUUCAAAAAUGAAUGGCUACUUUACACGUUUAACUAGGGUUUUACUAUAUAUGUGUGUGUAUAUAUAUAUAUAUAUA; value = 20.9 ratio
Strand = UGGCGCCUGCGCUCCCCACUCGUGUUUUUAAGUGUAUUUUUAUAAGAUACAUGUAUUUGUAAUAGAUCUUUUGUUACUAUAAUACUGAAUGCUACUGGAGAUUAUGAAAAAUGUUUCAAU; value = 0.326 ratio

Sample 3 — target: human cyclin A2; effect on: peptide binding; technique: competitive growth sequencing; form: peptide; organism: Saccharomyces cerevisiae; strain: cyclin A2-Cln2 fusion strain; tested at: concentration not given; setting: peptide tiling library; relative to: unfused Cln2 strain; direction: direction not given; quantity: binding score
Sequence = RRVLCFDS; value = 0.581
Sequence = LRRQLSFSED; value = 0.839
Sequence = PKRAKRKLYTSEISSP; value = 1.02
Sequence = QDYERRLLRQIVIQNE; value = 0.466
Sequence = NVVSLDDPIQFTRVSS; value = 1.79
Sequence = RKLHFEDEVT; value = 2.61
Sequence = KPSACANAFGPVDHEE; value = -0.302
Sequence = GQLVIPLDELTLDTSF; value = 0.42
Sequence = GTPKRCLDLSNLSSGE; value = 0.285
Sequence = PAKRRLELGE; value = 2.21
Sequence = PLRKAKRARLCSSSSS; value = 0.535
Sequence = PKNAKRNLSSEFAN; value = 2.91
Sequence = DTERAHSTLDEDLERW; value = 0.0547
Sequence = ASVLSKPIFCFVKD; value = 0.086
Sequence = DWDTVERQEEEAPSWD; value = 0.442
Sequence = TLPYDLACTGGDFVLF; value = 0.682
Sequence = SAVPLILPQAPSGPSY; value = 0.488
Sequence = TQERKQIHCLSEDELS; value = 0.346
Sequence = IPMIAKNLMCELDE; value = 0.32
Sequence = ESSQLTVQAEFDMSAI; value = -0.0497
Sequence = VKRLNFRSEEME; value = 0.822
Sequence = RKLDLEGIGR; value = 2.64
Sequence = STSRHAKAMFKTEGPD; value = -0.521
Sequence = GRLPAKRKLDLEGIGR; value = 2.15
Sequence = EPPHRRRLLFACSPPP; value = 0.309

Sample 4 — technique: protein-binding microarray; form: double-stranded DNA, one strand shown; sample: in vitro; tested at: 250 nM; setting: 60-bp whole probe; added: salmon DNA 0.4 mg/ml; relative to: random background probes; direction: higher = stronger binding; quantity: log fluorescence; all sequences stand within: GCCTAGCAC … GTCTTGATTCGCTTGACGCTGCTG
Target: Interferon regulatory factor 5, full length, phosphomimetic (IRF5, Homo sapiens, UniProt Q13568-2, residues 1-514, K96S/S451D/S453D/S456D/S462D)
Strand = TTAGAAATGGGGTTTCGATTAGTGCTA; value = 6.41 z-score
Strand = GACGGTCTCGGTATCTGGACGTGCTAG; value = 0.418 z-score
Strand = GACGGACTGGGGTATCGGGAGGTGCTA; value = -0.13 z-score
Strand = TTAGGTATCGGGTATAGGTTAGTGCTA; value = 3.8 z-score
Strand = TTAGATTTCGGGTATCGAGTAGTGCTA; value = 6.14 z-score
Strand = TTAGGTATCGACACGGGGTTAGTGCTA; value = 2.49 z-score
Strand = TCATTGTTCTCTCTGGCACTGTGCTAG; value = 0.406 z-score
Strand = TACGATATCGGGACTGGAGACGTGCTA; value = 0.889 z-score
Strand = GACGGTTTCGGGTATCGGGGCGTGCTA; value = 7.82 z-score
Strand = TCATTTTGGTCTTTCTGACTGTGCTAG; value = 1.63 z-score
Strand = ATTATGTTTGCTTTGTTCTGGTGCTAG; value = 0.486 z-score
Strand = GTCGATATCAGTTTCGAGACGTGCTAG; value = 7.83 z-score
Strand = TTAGAACTGAGTCTTGATTAGTGCTAG; value = 0.0443 z-score
Strand = TTAGGTCTCGGACTGGTTTAGTGCTAG; value = -0.244 z-score
Strand = TTAGTACTGGGGACTGGATTAGTGCTA; value = -0.189 z-score
Strand = ATAGAACTGGGGTTTCGATTAGTGCTA; value = 5.74 z-score
Strand = TTAAGTTTCGACTTTCGGTTAGTGCTA; value = 11.3 z-score
Strand = GACGGACTGTGTCTCGGGACGTGCTAG; value = -0.744 z-score
Strand = TCAGCTCTTGTTTTCACACTGTGCTAG; value = 0.821 z-score

For quick reference, copied from above (sample 3):
Sequence = GQLVIPLDELTLDTSF; value = 0.42
Sequence = GTPKRCLDLSNLSSGE; value = 0.285
Sequence = PLRKAKRARLCSSSSS; value = 0.535
Sequence = EPPHRRRLLFACSPPP; value = 0.309
